Published values of several laboratories.
Compare with care: the assays were run in different laboratories. Numbers after ± are the reported error.
Kcnmb1 with BK alpha subunit: Calcium-activated potassium channel subunit beta-1, with BK alpha subunit (Kcnmb1, Rattus norvegicus, UniProt P97678)
UniProt P97678, sequence (whole entry, looked up): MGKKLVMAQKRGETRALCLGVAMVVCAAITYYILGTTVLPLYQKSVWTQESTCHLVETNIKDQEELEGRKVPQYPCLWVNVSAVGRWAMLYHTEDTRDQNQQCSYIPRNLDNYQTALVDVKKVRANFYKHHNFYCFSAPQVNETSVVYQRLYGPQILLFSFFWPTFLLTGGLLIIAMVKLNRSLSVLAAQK
PRMT8: Protein arginine N-methyltransferase 8 (PRMT8, Homo sapiens, UniProt Q9NR22)
UniProt Q9NR22, sequence (whole entry, looked up): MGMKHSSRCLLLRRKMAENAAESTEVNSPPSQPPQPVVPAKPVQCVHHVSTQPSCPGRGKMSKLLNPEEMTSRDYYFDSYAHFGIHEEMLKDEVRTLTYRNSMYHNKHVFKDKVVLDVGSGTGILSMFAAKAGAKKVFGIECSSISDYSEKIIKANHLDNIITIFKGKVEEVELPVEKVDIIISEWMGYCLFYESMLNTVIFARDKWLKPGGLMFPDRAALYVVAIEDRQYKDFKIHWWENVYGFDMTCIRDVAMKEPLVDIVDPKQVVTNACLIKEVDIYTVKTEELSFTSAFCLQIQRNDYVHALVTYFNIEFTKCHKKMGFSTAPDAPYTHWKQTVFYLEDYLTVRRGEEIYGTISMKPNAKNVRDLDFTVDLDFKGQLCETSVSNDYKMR
UniProt Q923J1, sequence (whole entry, unmodified, looked up): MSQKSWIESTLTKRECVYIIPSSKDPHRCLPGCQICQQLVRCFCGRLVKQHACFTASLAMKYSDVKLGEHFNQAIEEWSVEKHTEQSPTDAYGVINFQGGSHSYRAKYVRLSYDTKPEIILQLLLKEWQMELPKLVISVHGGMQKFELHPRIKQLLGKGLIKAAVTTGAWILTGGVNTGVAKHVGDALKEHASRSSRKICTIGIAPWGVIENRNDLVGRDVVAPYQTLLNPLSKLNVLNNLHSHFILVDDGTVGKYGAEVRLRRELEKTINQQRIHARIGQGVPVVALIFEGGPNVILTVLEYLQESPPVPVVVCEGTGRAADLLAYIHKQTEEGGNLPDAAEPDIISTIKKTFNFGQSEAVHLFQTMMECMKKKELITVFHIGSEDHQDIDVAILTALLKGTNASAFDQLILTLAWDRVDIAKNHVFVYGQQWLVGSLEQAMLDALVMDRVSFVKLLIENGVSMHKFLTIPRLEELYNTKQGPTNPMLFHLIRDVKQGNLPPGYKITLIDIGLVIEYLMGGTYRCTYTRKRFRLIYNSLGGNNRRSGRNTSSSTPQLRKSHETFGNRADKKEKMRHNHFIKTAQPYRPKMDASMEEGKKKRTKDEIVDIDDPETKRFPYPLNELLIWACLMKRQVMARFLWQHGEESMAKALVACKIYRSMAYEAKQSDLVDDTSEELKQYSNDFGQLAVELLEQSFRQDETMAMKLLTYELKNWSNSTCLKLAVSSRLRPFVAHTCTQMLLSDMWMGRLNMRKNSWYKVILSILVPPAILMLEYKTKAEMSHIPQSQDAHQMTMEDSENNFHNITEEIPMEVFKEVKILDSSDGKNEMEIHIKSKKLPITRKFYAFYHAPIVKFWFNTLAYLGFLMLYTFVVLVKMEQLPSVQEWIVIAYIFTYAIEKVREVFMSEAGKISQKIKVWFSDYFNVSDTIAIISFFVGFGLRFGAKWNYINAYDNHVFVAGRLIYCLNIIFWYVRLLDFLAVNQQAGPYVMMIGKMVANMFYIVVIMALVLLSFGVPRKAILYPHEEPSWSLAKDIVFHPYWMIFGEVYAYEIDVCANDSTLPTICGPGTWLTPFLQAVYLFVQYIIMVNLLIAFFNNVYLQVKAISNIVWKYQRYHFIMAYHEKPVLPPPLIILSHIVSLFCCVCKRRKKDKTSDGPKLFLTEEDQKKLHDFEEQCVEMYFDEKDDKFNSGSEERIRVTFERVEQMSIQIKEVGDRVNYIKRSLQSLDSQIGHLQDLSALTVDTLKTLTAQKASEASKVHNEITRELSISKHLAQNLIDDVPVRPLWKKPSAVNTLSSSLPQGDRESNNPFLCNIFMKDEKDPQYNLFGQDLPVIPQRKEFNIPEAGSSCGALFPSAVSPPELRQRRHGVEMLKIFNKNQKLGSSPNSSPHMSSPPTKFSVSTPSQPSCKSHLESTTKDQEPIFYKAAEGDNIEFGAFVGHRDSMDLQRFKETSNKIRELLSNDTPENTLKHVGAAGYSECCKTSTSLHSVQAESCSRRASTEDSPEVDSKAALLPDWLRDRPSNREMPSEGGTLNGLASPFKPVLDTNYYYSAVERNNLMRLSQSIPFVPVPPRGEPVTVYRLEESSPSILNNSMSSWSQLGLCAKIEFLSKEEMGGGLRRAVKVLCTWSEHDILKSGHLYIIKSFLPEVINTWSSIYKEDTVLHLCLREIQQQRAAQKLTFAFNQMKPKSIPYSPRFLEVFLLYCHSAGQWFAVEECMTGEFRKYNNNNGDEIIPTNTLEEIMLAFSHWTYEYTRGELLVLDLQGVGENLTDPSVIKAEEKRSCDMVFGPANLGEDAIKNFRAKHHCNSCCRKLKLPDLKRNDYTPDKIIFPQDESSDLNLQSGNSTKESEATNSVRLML
UniProt P22002, sequence (whole entry, looked up): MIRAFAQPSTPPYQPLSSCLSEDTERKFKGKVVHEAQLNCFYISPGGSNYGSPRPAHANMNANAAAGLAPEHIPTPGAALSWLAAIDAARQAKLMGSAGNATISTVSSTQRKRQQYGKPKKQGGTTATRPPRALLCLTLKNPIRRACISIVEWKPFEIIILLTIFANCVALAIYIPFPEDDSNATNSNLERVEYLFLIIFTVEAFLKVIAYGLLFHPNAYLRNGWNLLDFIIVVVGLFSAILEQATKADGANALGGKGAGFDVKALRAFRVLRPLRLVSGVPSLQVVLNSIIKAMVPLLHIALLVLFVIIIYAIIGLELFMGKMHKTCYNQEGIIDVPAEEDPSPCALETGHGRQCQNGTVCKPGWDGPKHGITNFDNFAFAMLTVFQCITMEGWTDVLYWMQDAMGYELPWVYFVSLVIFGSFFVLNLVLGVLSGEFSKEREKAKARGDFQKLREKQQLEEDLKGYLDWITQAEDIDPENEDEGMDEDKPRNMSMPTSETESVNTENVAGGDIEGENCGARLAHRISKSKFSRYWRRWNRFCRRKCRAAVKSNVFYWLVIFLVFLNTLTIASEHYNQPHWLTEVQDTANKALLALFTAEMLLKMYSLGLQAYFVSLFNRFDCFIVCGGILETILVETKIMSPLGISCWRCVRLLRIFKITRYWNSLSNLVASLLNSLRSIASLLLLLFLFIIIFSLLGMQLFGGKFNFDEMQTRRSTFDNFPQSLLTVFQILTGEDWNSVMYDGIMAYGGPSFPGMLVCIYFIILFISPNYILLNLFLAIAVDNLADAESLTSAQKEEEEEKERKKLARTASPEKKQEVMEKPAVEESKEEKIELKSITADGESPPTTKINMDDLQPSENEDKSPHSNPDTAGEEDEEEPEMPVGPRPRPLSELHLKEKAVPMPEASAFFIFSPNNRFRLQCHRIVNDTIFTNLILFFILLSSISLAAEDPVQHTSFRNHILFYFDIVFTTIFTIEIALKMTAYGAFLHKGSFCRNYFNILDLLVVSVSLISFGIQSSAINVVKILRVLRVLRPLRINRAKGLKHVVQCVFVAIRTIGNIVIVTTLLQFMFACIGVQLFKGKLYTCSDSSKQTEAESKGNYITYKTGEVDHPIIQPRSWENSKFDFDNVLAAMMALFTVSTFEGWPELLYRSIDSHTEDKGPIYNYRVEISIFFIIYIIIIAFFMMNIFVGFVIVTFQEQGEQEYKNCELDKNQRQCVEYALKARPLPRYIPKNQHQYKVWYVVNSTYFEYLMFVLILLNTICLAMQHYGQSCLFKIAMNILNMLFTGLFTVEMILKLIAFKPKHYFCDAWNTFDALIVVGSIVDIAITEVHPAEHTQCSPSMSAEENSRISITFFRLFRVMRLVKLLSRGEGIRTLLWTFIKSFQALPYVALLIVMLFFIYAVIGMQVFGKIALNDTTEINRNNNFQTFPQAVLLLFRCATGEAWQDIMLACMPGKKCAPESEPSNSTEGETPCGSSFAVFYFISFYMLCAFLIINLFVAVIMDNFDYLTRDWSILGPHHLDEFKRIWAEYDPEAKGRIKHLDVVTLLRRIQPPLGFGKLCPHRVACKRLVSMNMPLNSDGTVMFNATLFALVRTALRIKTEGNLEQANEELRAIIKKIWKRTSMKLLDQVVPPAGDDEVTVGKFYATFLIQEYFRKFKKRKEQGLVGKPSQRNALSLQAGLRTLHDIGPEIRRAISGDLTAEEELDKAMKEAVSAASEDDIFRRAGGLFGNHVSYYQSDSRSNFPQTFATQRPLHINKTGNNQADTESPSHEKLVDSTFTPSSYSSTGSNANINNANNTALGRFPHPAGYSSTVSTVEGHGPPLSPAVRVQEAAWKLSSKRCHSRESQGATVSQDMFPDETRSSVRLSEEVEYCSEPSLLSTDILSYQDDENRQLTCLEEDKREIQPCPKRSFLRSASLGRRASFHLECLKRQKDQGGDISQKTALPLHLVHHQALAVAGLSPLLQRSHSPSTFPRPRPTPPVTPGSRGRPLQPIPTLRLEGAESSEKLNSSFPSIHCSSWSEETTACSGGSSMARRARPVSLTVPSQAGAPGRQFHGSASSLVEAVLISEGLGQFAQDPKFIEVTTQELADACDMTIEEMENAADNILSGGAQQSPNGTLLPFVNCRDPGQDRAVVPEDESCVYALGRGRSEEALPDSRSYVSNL
UniProt Q9QXD6, sequence (whole entry, unmodified, looked up): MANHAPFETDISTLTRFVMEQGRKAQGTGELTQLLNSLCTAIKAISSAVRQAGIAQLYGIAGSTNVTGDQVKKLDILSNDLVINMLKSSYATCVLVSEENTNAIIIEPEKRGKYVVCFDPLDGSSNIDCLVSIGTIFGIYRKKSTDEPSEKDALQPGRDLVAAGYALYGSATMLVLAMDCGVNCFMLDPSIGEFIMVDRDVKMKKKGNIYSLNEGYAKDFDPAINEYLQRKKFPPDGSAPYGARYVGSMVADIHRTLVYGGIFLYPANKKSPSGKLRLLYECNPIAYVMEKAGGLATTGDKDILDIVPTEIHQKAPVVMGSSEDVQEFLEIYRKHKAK

CN(C)C(=O)C(CCN1CCC(O)(c2ccc(Cl)cc2)CC1)(c1ccccc1)c1ccccc1  Hill coefficient (Calcium-activated potassium channel subunit alpha-1, with LRRC26 γ1 subunit (KCNMA1, Homo sapiens, UniProt Q12791); BK channel conductance, inside-out patch clamp; BKα/γ1, Vm 90 mV, nominally Ca2+-free): 0.721 ± 0.065
O=C(Nc1ccc(F)cc1)c1nnc(/C(Cl)=C\c2cccc([N+](=O)[O-])c2)s1  Hill coefficient (Kcnmb1 with BK alpha subunit; BK channel current; CHO with alpha and beta1): 0.27 ± 0.1
CCOC(=O)C1=C(C)NC(C)=C(C(=O)OC)C1c1cccc([N+](=O)[O-])c1 (stereo not drawn)  Hill coefficient (Voltage-dependent L-type calcium channel subunit alpha-1C (Cacna1c, Rattus norvegicus, UniProt P22002); dihydropyridine site binding, antagonist, radioligand binding): 1.1
Cc1n[nH]c(C)c1CCc1nc2c3ccccc3nc(SCc3ccc([N+](=O)[O-])cc3)n2n1  Hill coefficient (Kcnmb1 with BK alpha subunit; BK channel current; CHO with alpha and beta1): 0.06
N=C(N)Nc1nc2ccccc2[nH]1  Hill coefficient (Voltage-gated hydrogen channel 1 (HVCN1, Homo sapiens, UniProt Q96D96); proton current, inhibitor, inside-out patch clamp): 0.88 ± 0.02
c1ccc2c(c1)CCC[C@H]2Nc1nc2ccccc2[nH]1  Hill coefficient (Transient receptor potential cation channel subfamily M member 7 (Trpm7, Mus musculus, UniProt Q923J1); calcium influx, inhibitor, aequorin luminescence; HEK293T expressing wild-type Trpm7): 1.46 ± 0.07
CCCC[C@H](NC(=O)[C@H](C)c1c(C)[nH]c2ccc(O)cc12)c1ncc(-c2cc3ccccc3nc2OC)[nH]1  Hill coefficient (Prostaglandin F2-alpha receptor (PTGFR, Homo sapiens, UniProt P43088)): 0.5
CC1(C)C(/C=C/C=C2/N(CCCc3ccccc3)c3ccc4ccccc4c3C2(C)C)=[N+](CCCc2ccccc2)c2ccc3ccccc3c21.[Br-]  Hill coefficient (PRMT8; inhibitor, scintillation proximity; together with: biotinylated histone H4 peptide substrate): 1.63
N#Cc1ccc(COC[C@H]2O[C@@H](n3c(NCc4ccc(Cl)c(Cl)c4)nc4c(N)ncnc43)[C@H](O)[C@@H]2O)cc1  Hill coefficient (Transient receptor potential cation channel subfamily M member 7 (Trpm7, Mus musculus, UniProt Q923J1, F924W); calcium influx, inhibitor, aequorin luminescence; HEK293T expressing Trpm7): 2.72 ± 0.14
C/C(=N\Nc1ccc([N+](=O)[O-])cc1S(=O)(=O)Nc1ccccc1Cl)c1ccc2ccccc2c1O  Hill coefficient (Kcnmb1 with BK alpha subunit; BK channel current; CHO with alpha and beta1): 0.25 ± 0.13
C(/C=C/c1sc2c3ccccc3ccc2[n+]1CCCc1ccccc1)=C1/Sc2c(ccc3ccccc23)N1CCCc1ccccc1.[I-]  Hill coefficient (PRMT8; inhibitor, scintillation proximity; together with: biotinylated histone H4 peptide substrate): 0.87
O=P(O)(O)OC[C@H]1O[C@@](CO)(OP(=O)(O)O)[C@@H](O)[C@@H]1O  Hill coefficient (Fructose-1,6-bisphosphatase 1 (Mus musculus, UniProt Q9QXD6, G27P); untagged G27P): 1.45 ± 0.14

Repeated from above:
CN(C)C(=O)C(CCN1CCC(O)(c2ccc(Cl)cc2)CC1)(c1ccccc1)c1ccccc1  Hill coefficient (Calcium-activated potassium channel subunit alpha-1, with LRRC26 γ1 subunit (KCNMA1, Homo sapiens, UniProt Q12791); BK channel conductance, inside-out patch clamp; BKα/γ1, Vm 90 mV, nominally Ca2+-free): 0.721 ± 0.065
c1ccc2c(c1)CCC[C@H]2Nc1nc2ccccc2[nH]1  Hill coefficient (Transient receptor potential cation channel subfamily M member 7 (Trpm7, Mus musculus, UniProt Q923J1); calcium influx, inhibitor, aequorin luminescence; HEK293T expressing wild-type Trpm7): 1.46 ± 0.07
